{"data": "Measured values pooled from the literature", "note": "Each line is one published result; not all experiments were run side by side. Values joined by “and” are separate records of one study, mostly repeats; a detail may differ. Numbers after ± are the reported error."}
{"SMILES": "CNC(=O)C[C@H](Cc1ccc(F)cc1)NC(=O)[C@@H](Cc1ccc(Cl)cc1Cl)NC(=O)[C@H](N)Cc1ccccc1[N+](=O)[O-]", "tested on": "Huh-7-ACE2", "assay": "CellTiter-Glo", "conditions": "0.0488 µM, 48 h, unit not given", "how to read": "reference: DMSO", "endpoint": "viability", "value": "0.976 and 1.01 and 1.07"}
{"SMILES": "COC(=O)c1cc2c(=O)n3ccccc3nc2n1Cc1ccccc1", "tested on": "Vero", "assay": "MTT", "conditions": "25 µM, 24 (unit not given)", "endpoint": "viability", "value": "58.4%"}
{"SMILES": "O=C(CCc1ccccc1)NOC(=O)OCc1ccccc1", "tested on": "MCF7", "conditions": "25 µM, 24 h", "endpoint": "viability", "value": "> 90%"}
{"SMILES": "CSCC[C@H](NC(=O)[C@@H](NC(C)=O)C(C)C)C(=O)N1CCC[C@H]1C(=O)N[C@@H](Cc1c[nH]c2ccccc12)C(=O)N[C@@H](CC(=O)O)C(=O)N[C@@H](CCC(=O)O)C(=O)N[C@@H](Cc1c[nH]c2ccccc12)C(=O)N[C@@H](CC(C)C)C(=O)N[C@H](C(=O)N[C@@H](CCCCN)C(=O)N[C@@H](CCCNC(=N)N)C(=O)N[C@@H](CCCCN)C(=O)N1CCC[C@H]1C(=O)N[C@@H](CCC(=O)O)C(=O)N[C@@H](CC(C)C)C(=O)N1CCC[C@H]1C(N)=O)[C@@H](C)O", "tested on": "Vero", "conditions": "80 µM, overnight", "endpoint": "viability", "value": "~77%"}
{"SMILES": "CNC(=O)C[C@H](Cc1ccncc1)NC(=O)[C@@H](Cc1cccc(Br)c1)NC(=O)[C@@H](N)Cc1ccsc1", "tested on": "Huh-7-ACE2", "assay": "CellTiter-Glo", "conditions": "1.562 µM, 48 h, unit not given", "how to read": "reference: DMSO", "endpoint": "viability", "value": "1.01 and 0.942 and 0.975"}
{"SMILES": "NC(=O)N/N=C/c1ccc(OCc2ccccc2)cc1", "tested on": "IMR-32", "assay": "MTT", "conditions": "200 µg/mL, 24 h", "how to read": "reference: untreated control", "endpoint": "viability", "value": "42%"}
{"SMILES": "CC(C)(C)C(=O)OCOP(=O)(OCOC(=O)C(C)(C)C)C1CCCN(O)C1=O (centres unmarked)", "tested on": "CCRF-CEM", "endpoint": "CC50", "value": "> 100 µM"}
{"SMILES": "O=C1NC2(CC2)COc2ncc(F)cc2[C@H]2COCCN2c2ccn3ncc1c3n2", "system": "Sprague-Dawley rat, female, adrenals", "conditions": "oral, 2.5 mg/kg/day, 4 weeks, end of treatment", "endpoint": "organ-to-brain weight ratio", "value": "3.83 ± 0.46%"}
{"SMILES": "O=c1n(CCNCCOS(=O)(=O)c2ccccc2)c(=O)n(S(=O)(=O)c2ccccc2)c(=O)n1S(=O)(=O)c1ccccc1", "tested on": "HUVEC", "assay": "cell growth or viability, MTT", "conditions": "12.5 µg/mL, 72 h", "endpoint": "viability", "value": "23.7%"}
{"SMILES": "CNC(=O)C[C@H](Cc1ccc(F)cc1)NC(=O)[C@@H](Cc1ccc(Cl)cc1Cl)NC(=O)[C@H](N)Cc1ccccc1C#N", "tested on": "Huh-7-ACE2", "assay": "CellTiter-Glo", "conditions": "0.0244 µM, 48 h, unit not given", "how to read": "reference: DMSO", "endpoint": "viability", "value": "1.01 and 0.877 and 0.909"}
{"SMILES": "CC[C@H](C)[C@H](NC(=O)[C@H](C)NC(=O)[C@H](CCCCN)NC(=O)[C@H](CCCCN)NC(=O)[C@@H](N)CCCNC(=N)N)C(=O)N[C@@H](CCCCN)C(=O)N[C@@H](CC(C)C)C(=O)N[C@H](C(=O)N[C@@H](CCCCN)C(=O)N[C@@H](CCCCN)C(=O)N[C@@H](CC(C)C)C(=O)N[C@H](C(=O)N[C@@H](CCCCN)C(=O)N[C@@H](CCCCN)C(=O)N[C@@H](CC(C)C)C(=O)N[C@@H](CCCCN)C(=O)N[C@@H](CCCCN)C(=O)N[C@@H](C)C(=O)N[C@@H](CC(C)C)C(=O)N[C@@H](CCCCN)C(=O)O)C(C)C)C(C)C", "tested on": "HeLa", "assay": "cell growth or viability, MTT", "conditions": "8 µg/mL", "endpoint": "viability", "value": "92.9%"}
{"SMILES": "CNC(=O)CC[C@H](Cc1ccccc1)NC(=O)[C@@H](Cc1ccc(Cl)cc1Cl)NC(=O)[C@H](N)Cc1ccccc1[N+](=O)[O-]", "tested on": "Huh-7-ACE2", "assay": "CellTiter-Glo", "conditions": "12.5 µM, 48 h, unit not given", "how to read": "reference: DMSO", "endpoint": "viability", "value": "1.03 and 1.01 and 0.967"}
{"SMILES": "CC(=O)N[C@@H](Cc1c[nH]c2ccccc12)C(=O)NCCCCCCCCCCCC(=O)NCCCC[C@@H]1NC(=O)[C@H](CCCNC(=N)N)NC(=O)[C@H](CCCNC(=N)N)NC(=O)[C@H](CCCNC(=N)N)NC(=O)[C@H](CCCNC(=N)N)NC(=O)[C@H](CCCNC(=N)N)NC1=O", "tested on": "HEK-293T", "assay": "MTS", "conditions": "concentration not given, 24 h, up to 10 µM", "endpoint": "viability", "value": "≥ 86%"}
{"SMILES": "CC[C@H](C)[C@H](NC(=O)[C@H](C)NC(=O)[C@H](CCCCN)NC(=O)[C@H](CC(C)C)NC(=O)[C@@H](N)Cc1ccccc1)C(=O)N[C@@H](CCCCN)C(=O)N[C@@H](CCCCN)C(=O)N[C@@H](Cc1ccccc1)C(=O)NCC(=O)N[C@@H](CCCCN)C(=O)N[C@@H](CCC(=O)O)C(=O)N[C@@H](Cc1ccccc1)C(=O)N[C@@H](CCCCN)C(=O)N[C@@H](CCCCN)C(=O)N[C@H](C(=O)NCC(=O)N[C@@H](C)C(=O)N[C@@H](CCCCN)C(=O)N[C@@H](CC(C)C)C(=O)N[C@@H](CCCCN)C(=O)O)[C@@H](C)CC", "tested on": "HaCaT", "assay": "cell growth or viability, MTT", "conditions": "16 µg/mL", "endpoint": "viability", "value": "91.5%"}
{"note": "For quick reference, copied from above:"}
{"SMILES": "CNC(=O)CC[C@H](Cc1ccccc1)NC(=O)[C@@H](Cc1ccc(Cl)cc1Cl)NC(=O)[C@H](N)Cc1ccccc1[N+](=O)[O-]", "tested on": "Huh-7-ACE2", "assay": "CellTiter-Glo", "conditions": "12.5 µM, 48 h, unit not given", "how to read": "reference: DMSO", "endpoint": "viability", "value": "1.03 and 1.01 and 0.967"}
